Published values from different studies.
Compare with care: the assays were run in different laboratories.

Structure (SMILES) | test | test system | conditions | how to read | endpoint | result
C=CC(=O)Nc1cc(Nc2nccc(-c3cn(C)c4ccccc34)n2)c(OC)cc1N(C)CCN(C)C | item: treatment-related grade ≥3 Anemia | EGFR-mutant MET-altered NSCLC | oral, dose not given, all |  | patients with adverse events | 0%
FC(F)(F)c1ccc(CNc2ccc(Cc3c[nH]c4ncc(Cl)cc34)cn2)cn1 | item: skin hypopigmentation | non-TGCT solid tumour patients | oral, 1000 mg/day, grade 3 or higher |  | patients with treatment-related adverse event | 0%
CC(C)C[C@H](NC(=O)CNC(=O)c1cc(Cl)ccc1Cl)B(O)O | item: Thrombocytopenia, all grades | newly diagnosed multiple myeloma patients | oral, dose not given, maintenance phase, new onset, cycle 17 or later |  | patients with adverse event | 0%
COc1cc2nccc(Oc3ccc(NC(=O)c4cc5c(n(-c6ccccc6)c4=O)CCCC5=O)nc3)c2cc1OC |  | patients with relapsed/refractory AML | oral, 3 mg once daily |  | patients with drug-related serious TEAEs | 0%
Cc1cc(-c2nnc(N)nc2-c2ccc(F)cc2)cc(Cl)n1 | item: Dizziness | other solid tumours, IO-naive | oral, 100 mg once daily, all grades |  | patients with treatment-related AE | 21.1%
C[C@@H](Nc1cc(F)cc(F)c1)c1cc(C(=O)N(C)C)cc2c(=O)cc(N3CCOCC3)oc12 | CTCAE v4, item: autoimmune colitis | patients with advanced solid tumours | oral, dose not given, phase I dose finding |  | patients discontinuing for AE | 0%
O=C(Nc1nc2cccc(-c3ccc(CN4CCS(=O)(=O)CC4)cc3)n2n1)C1CC1 | item: bile reflux into stomach | rheumatoid arthritis patients | oral, 30 mg once daily, 4 weeks, any relatedness |  | patients with adverse event | 0%
CCOc1c([C@H](C)n2nc(C)c3c(N)ncnc32)cc(Cl)c(F)c1[C@@H]1CNC(=O)C1 | item: QTcF change ≤30 ms | previously treated B-cell malignancy | oral, 5 mg once daily, baseline QTcF ≤450 ms | reference: baseline | patients | 100%
CNC(=O)c1ccc(-c2cnc3ncc(Cc4ccc5ncccc5c4)n3n2)cc1F | item: Hypoalbuminemia | other cancer patients | oral, 600 mg twice daily, expansion cohort, grade 3-4 |  | patients with adverse event | 0%
NC(=O)N1c2ccccc2C=Cc2ccccc21 |  | male patients | oral, dose not given, on-treatment adverse events |  | patients with Alopecia | 0%
C[C@@H](c1ccc2nccn2c1)n1nnc2ncc(-c3cnn(C)c3)nc21 | item: Thrombocytopenia grade ≥3 | EGFR-mutant MET-altered NSCLC | oral, study |  | patients with treatment-related AEs | 0%
Cc1cc(NC2CCN(C(=O)OC3CCN(C(=O)/C=C/CN(C)C)C3)CC2)n2ncc(C(C)C)c2n1 (centres unmarked) | Phase I dose escalation CTCAE v4.0, item: AST increased | patients with advanced solid tumours | dose not given, Total dosing grade 3 or higher |  | patients with adverse event | 0%
COc1cc(Nc2ncc3c(n2)-c2ccc(Cl)cc2C(c2c(F)cccc2OC)=NC3)ccc1C(=O)O | item: increased TSH, all grades | cancer patients, phase 1/2 | oral, dose not given, together with: pembrolizumab |  | patients with adverse event | 13%
CNC(=O)c1cc(Oc2ccc(NC(=O)Nc3cc(C(C)(C)C)nn3-c3ccc4ncccc4c3)c(F)c2)ccn1 |  | patients | oral, dose not given, cycles 1 and 2, High AUC subgroup |  | patients with grade 1 cardiac disorders | 11%

A few entries again:
Structure (SMILES) | test | test system | conditions | how to read | endpoint | result
CNC(=O)c1ccc(-c2cnc3ncc(Cc4ccc5ncccc5c4)n3n2)cc1F | item: Hypoalbuminemia | other cancer patients | oral, 600 mg twice daily, expansion cohort, grade 3-4 |  | patients with adverse event | 0%
COc1cc2nccc(Oc3ccc(NC(=O)c4cc5c(n(-c6ccccc6)c4=O)CCCC5=O)nc3)c2cc1OC |  | patients with relapsed/refractory AML | oral, 3 mg once daily |  | patients with drug-related serious TEAEs | 0%
